Measurements from different studies.
Every numbered part comes from another study and shows a few of its results, in no order. Positions count from the first letter of the parent shown.
UniProt P9WI81, sequence (whole entry, looked up): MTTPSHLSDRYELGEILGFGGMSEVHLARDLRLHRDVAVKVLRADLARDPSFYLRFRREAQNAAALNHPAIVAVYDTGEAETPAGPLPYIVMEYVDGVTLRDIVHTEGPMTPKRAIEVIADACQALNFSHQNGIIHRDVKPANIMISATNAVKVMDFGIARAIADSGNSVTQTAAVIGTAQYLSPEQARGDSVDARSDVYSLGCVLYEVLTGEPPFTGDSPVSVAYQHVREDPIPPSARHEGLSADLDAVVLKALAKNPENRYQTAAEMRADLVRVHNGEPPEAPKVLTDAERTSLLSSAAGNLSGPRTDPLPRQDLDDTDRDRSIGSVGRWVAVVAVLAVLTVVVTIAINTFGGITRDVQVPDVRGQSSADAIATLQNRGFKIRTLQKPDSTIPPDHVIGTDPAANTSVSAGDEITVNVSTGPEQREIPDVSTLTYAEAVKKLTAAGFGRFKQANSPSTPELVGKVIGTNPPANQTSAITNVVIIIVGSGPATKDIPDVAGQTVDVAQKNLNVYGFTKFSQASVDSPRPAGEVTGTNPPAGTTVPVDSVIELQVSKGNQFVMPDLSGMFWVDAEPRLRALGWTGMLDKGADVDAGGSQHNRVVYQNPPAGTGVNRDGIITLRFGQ

Study 1
Target: Interferon regulatory factor 7, full length, phosphomimetic (IRF7, Homo sapiens, UniProt Q92985, residues 1-503, S471D/S472D/S475D/S476D/S477D/S483D/S484D/S487D)
UniProt Q92985, sequence (whole entry, unmodified, looked up): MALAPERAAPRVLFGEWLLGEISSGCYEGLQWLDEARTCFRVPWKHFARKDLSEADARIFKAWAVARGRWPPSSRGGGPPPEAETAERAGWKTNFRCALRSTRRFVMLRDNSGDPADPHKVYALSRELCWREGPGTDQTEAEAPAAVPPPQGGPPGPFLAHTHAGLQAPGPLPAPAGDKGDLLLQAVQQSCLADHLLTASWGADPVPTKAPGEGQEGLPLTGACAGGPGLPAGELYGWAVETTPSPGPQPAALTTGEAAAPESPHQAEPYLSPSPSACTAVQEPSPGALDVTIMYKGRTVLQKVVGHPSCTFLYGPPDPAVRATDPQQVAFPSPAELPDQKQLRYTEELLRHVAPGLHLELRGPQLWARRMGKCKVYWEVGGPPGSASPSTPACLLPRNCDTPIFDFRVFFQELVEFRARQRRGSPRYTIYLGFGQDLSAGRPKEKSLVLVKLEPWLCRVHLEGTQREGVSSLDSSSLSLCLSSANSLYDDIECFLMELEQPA
Technique: protein-binding microarray
Form: double-stranded DNA, one strand shown
Sample: in vitro
Concentration: 2200 nM top
Setting: 60-bp whole probe
With: salmon DNA 0.4 mg/ml
Relative to: random background probes
Direction: higher = stronger binding
Constant ends, left off below: GCCTAGCAC … GTCTTGATTCGCTTGACGCTGCTG
Under “fitted relative affinity”, `GACGGACTGGACTATCGGGACGTGCTA` is recorded as -0.723 z-score.
`GGGTGAATGTGTCTTAAATAGTGCTAG` — result for “fitted relative affinity”: -0.191 z-score.
`TTCATTTTGTGTCTGGGCATGTGCTAG` — result for “fitted relative affinity”: 1.31 z-score.
Under “fitted relative affinity”, `TCAGTTTTGTGTCTGGGACTGTGCTAG` is recorded as 2.01 z-score.
`GACGAAATGGGGACTGGAGACGTGCTA`: “fitted relative affinity” 0.00874 z-score.
`TTAGGATTGGACTTTCGGTTAGTGCTA`: “fitted relative affinity” 5.18 z-score.
`TCATTATTCTAGCCTCCAACTGTGCTA`: “fitted relative affinity” 1.59 z-score.
`GACGGACTGCTTTTCGTGACGTGCTAG` — result for “fitted relative affinity”: 0.724 z-score.

Study 2
Target: Prothrombin, mature alpha-thrombin (F2, Homo sapiens, UniProt P00734)
Technique: aptamer microarray, sandwich
Form: DNA with 2'F-ANA
Sample: in vitro
Concentration: 200 nM
Setting: whole 15-mer aptamer, many near background
With: Cy3 exosite-II aptamer, 400 nM
Direction: higher = stronger binding
Oligonucleotide: GGTTGGTGTGGTTGG
Under “mean fluorescence intensity”, `2'F-ANA at 1 5 6 7 14 15` is recorded as 45.2 a.u.
`2'F-ANA at 2 3 5 8 10` — result for “mean fluorescence intensity”: 54.8 a.u.
For `2'F-ANA at 2 3 5 6 7 8 12`, “mean fluorescence intensity” read 236 a.u.
For `2'F-ANA at 1 4 6 9 10 13 14 15`, “mean fluorescence intensity” read 70.2 a.u.
For `2'F-ANA at 1 7 8 12 13`, “mean fluorescence intensity” read 461 a.u.
`2'F-ANA at 2 3 6 9 12 13 15` — result for “mean fluorescence intensity”: 757 a.u.
Under “mean fluorescence intensity”, `2'F-ANA at 4 5 7 9 11 13 14 15` is recorded as 46 a.u.
`2'F-ANA at 1 3 4 6 8 9 10 11 12 13 14` — result for “mean fluorescence intensity”: 51.8 a.u.

Mixed results
P1: viral docking peptide; TSVRRALFTGGSD; partner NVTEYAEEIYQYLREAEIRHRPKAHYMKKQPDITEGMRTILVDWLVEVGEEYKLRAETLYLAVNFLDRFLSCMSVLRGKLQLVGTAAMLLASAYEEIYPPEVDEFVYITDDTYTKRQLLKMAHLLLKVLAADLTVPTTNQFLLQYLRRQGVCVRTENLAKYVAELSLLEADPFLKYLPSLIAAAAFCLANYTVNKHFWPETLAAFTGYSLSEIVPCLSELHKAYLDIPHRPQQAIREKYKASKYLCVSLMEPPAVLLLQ
`P1 S12Y` — result for “normalised enrichment score”: 1.12 (CCNA1, cyclin fold, Cln2 fusion (human); yeast growth competition, sequencing; yeast; strong parent motif; relative to: not given, higher = stronger binding).
With `CCCOc1ccc([C@H]2[C@H](C(=O)O)[C@@H](c3ccc4c(c3)OCO4)CN2CC(=O)Nc2c(CC)cccc2CC)cc1` the remaining binding was 78% (pknB (Mycobacterium tuberculosis, UniProt P9WI81); cell-free assay, competition with immobilised ligand; 1 µM).
